# Results of several laboratories.
# Target: Inhibitor of nuclear factor kappa-B kinase subunit beta (IKBKB, Homo sapiens, UniProt O14920)
# Sequence (O14920 1-756, as in one of the studies): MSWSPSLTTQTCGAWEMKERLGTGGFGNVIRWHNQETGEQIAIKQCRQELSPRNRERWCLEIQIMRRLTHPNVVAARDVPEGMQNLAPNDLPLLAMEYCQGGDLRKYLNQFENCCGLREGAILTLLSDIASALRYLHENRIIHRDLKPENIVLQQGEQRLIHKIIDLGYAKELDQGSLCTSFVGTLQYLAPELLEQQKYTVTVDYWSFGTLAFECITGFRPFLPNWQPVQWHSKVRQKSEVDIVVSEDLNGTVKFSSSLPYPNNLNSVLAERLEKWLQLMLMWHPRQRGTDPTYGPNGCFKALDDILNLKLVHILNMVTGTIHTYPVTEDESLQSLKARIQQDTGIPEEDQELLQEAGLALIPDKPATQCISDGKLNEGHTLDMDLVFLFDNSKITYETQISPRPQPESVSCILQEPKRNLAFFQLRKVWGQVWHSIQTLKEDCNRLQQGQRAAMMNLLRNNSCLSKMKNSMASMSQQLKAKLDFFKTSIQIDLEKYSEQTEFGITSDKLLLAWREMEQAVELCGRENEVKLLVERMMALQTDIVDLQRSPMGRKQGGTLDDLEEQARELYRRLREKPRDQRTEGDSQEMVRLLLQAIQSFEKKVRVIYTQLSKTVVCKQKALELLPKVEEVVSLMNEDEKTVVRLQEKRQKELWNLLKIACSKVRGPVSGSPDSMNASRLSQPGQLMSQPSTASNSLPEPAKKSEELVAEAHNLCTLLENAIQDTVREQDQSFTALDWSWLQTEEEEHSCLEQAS
Compound,test,system,setting,scale,measurement,value
CCN1CCN(Cc2ccc(C(=O)Nc3ccc(C)c(NCc4cnc5[nH]ccc5c4OC)c3)cc2C(F)(F)F)CC1,"binding, competition with immobilised ligand",,1 µM,,remaining binding,1%
Cc1nc2c(F)cc(-c3nc(Nc4ccc(CNC(=O)CCCCCCC(=O)NO)cc4)ncc3F)cc2n1C(C)C,"enzyme activity, inhibitor",,1 µM,,inhibition,64%
Cc1cccc(-c2ccc3nc(NC(=O)C4CCOCC4)nn3c2)c1,"enzyme activity, Dundee kinase panel",,10 µM,,remaining activity,97%
Cc1c[nH]c2nccc(-c3ccc(C(=O)N[C@@H]4c5c(F)cc(C(F)F)cc5C[C@@H]4O)cn3)c12,"binding, competition with immobilised ligand",,3 µM,,remaining binding,14%
COc1c(OCCCN2CCOCC2)ccc2c1N=C(NC(=O)c1cnc(N)nc1)N1CCN=C21,"kinase activity, inhibitor",,1 µM,relative to: untreated control,remaining activity,103%
C[C@H]1CN(C(=O)c2cn(-c3ccnc(N)n3)c3cc(C#CC4(O)CCCCC4)ccc23)CCN1,"enzyme activity, inhibitor, FRET",,1 µM,,inhibition,3%
CN1CCN(Cc2ccc(-c3ccc(CO[C@H]4CCC[C@@H]4NC(=O)c4cc(-c5cnn(C)c5)cnc4N)cc3)cc2)CC1,"enzyme activity, inhibitor",,0.1 µM,,inhibition,2%
Nc1ncc2c(n1)-c1c([nH]c3ccc(C4=CCOCC4)cc13)CCC2,"binding, competition with immobilised ligand",,1 µM,,remaining binding,89%
COc1ccc(NC(=O)Nc2ccc3c(c2)C(=O)N(C(C)CO)CC(C)C(CN(C)Cc2ccc4c(c2)OCO4)O3)cc1 (centres unmarked),"kinase activity, KinaseProfiler",,"0.03 µM, species human",relative to: control,remaining activity,101%
Cc1cccc(O[C@H]2CCC[C@@H](C(C)CNCc3ccncc3)C2)c1 (relative stereo),"enzyme activity, inhibitor",,1 µM,,inhibition,2%
COc1ccc(C(=O)/C=C/c2ccccc2-c2c[nH]c3ccc(C#N)cc23)c(O)c1,"enzyme activity, inhibitor",,20 µM,,inhibition,-11%
CN1CCN(Cc2ccc(NC(=O)c3cccc(C#Cc4cnc(N)c5ncccc45)c3)cc2C(F)(F)F)CC1,"cell-free assay, competition with immobilised ligand",,50 nM,,remaining binding,0.8%
C=CC(=O)Nc1cccc(-c2cnc3[nH]cc(C(=O)NC(C)(C)C)c3n2)c1,"enzyme activity, inhibitor",,0.1 µM,,inhibition,0%
Cn1cc(-c2cnc3ccc(NC(=O)Nc4ccc5sccc5c4)cc3n2)cn1,"kinase binding, KiNativ profiling, measured: Lys2 peptide",PANC-1 lysate,2.5 µM,,inhibition,6.1%
COc1cc(Nc2nc(C)cc(-c3cnn4nc(OC)ccc34)n2)cc(C(F)(F)F)c1,KINOMEscan,,"1 µM, IKK-beta",relative to: DMSO,remaining binding,81%
Cc1ccc(-c2c(/C=C(\C#N)C(=O)NC(C)C)n(CCCO)c3ncnc(N)c23)cc1,"cell-free assay, competition with immobilised ligand",,1 µM,,remaining binding,78%
CN1CC[C@@H](COc2cnc(C#N)cc2-c2ccn3nc(NC(=O)C4CC4)cc3c2)C1,"inhibitor, KinaseProfiler panel",,1 µM,,inhibition,-19%
Cc1cccc(-c2ccc3nc(NC(=O)C4CCCO4)nn3c2)c1 (centres unmarked),"enzyme activity, Dundee kinase panel",,10 µM,,remaining activity,95%
CNC(=O)C[C@H](Cc1ccc(C#N)cc1)NC(=O)c1cc(-c2ccc(CN[C@H](C)c3ccc(C)cc3)o2)ccc1Cl,"enzyme activity, inhibitor",,1 µM,,activity vs control,95%
O=C=[N][Ru-4]123([n]4c5ccc(O)cc5c5c6c(c7cc(F)c[n+]1c7c54)C(=O)NC6=O)[S+]1CC[S+]2CC[S+]3CC1 (centres unmarked),enzyme activity,,"100 nM, human enzyme, added: 10 µM ATP",relative to: untreated,remaining activity,97%
CNS(=O)(=O)Nc1nccc(Cc2c(C)c3ccc(Oc4ncccc4F)cc3oc2=O)c1F,"cell-free assay, competition with immobilised ligand",,10 µM,,remaining binding,83%
NC(=O)[C@@H](O)C[C@H]1CCc2sc3ncnc(O[C@H]4CC[C@H](N5CCOCC5)CC4)c3c21,"enzyme activity, inhibitor",,10 µM,,inhibition,4%
C=C1CCCCCCCCCC(CO)C1=O (centres unmarked),cell-free assay,,10 µM,,remaining signal,73%

# A few entries again:
Compound,test,system,setting,scale,measurement,value
CN1CC[C@@H](COc2cnc(C#N)cc2-c2ccn3nc(NC(=O)C4CC4)cc3c2)C1,"inhibitor, KinaseProfiler panel",,1 µM,,inhibition,-19%
Cc1nc2c(F)cc(-c3nc(Nc4ccc(CNC(=O)CCCCCCC(=O)NO)cc4)ncc3F)cc2n1C(C)C,"enzyme activity, inhibitor",,1 µM,,inhibition,64%
